Measurements collected from several papers.
Every numbered part comes from another study and shows a few of its results, in no order. Positions count from the first letter of the parent shown.

Series 1 — technique: protein binding microarray; molecule type: double-stranded DNA, one strand shown; matrix: in vitro; tested at: not given; baseline: not given; reading: higher = stronger binding
Target: Histone acetyltransferase KAT6A, winged helix 2, GST fusion (KAT6A, Homo sapiens, UniProt Q92794, residues 85-181)
Setting: 8-mer, flanks averaged, mean of 2 arrays, mostly near background
Residues (chain): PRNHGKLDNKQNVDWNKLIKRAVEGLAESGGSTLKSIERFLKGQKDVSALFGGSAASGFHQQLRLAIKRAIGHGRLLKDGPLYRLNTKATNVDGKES
For `GAAAACAC`, the E-score was -0.127.
`AAGCTTCG` gave an E-score of -0.0488.
`CCGCAGGC` has an E-score of 0.256.
For `AGCTTCTA`, the E-score was -0.104.
`CCACTTCG` has an E-score of 0.141.
`ATCCGCAA` has an E-score of 0.0268.
`CACCAAAG` gave an E-score of 0.0686.
For `ATTGAAGC`, the E-score was 0.0674.
With `CGCCACGC` the E-score was 0.137.
The E-score of `ATTACGGC` is reported as 0.0495.
The E-score of `ACAACTGC` is reported as 0.0637.
`CCAAAAAA` gave an E-score of 0.231.

Series 2 — technique: universal PBM; molecule type: double-stranded DNA, one strand shown; matrix: in vitro; tested at: not given; reading: higher = stronger binding
Target: Sal-like protein 4, full length isoform B (SALL4, Homo sapiens, UniProt Q9UJQ4-2, residues 1-616)
Setting: 8-mer, flanks averaged, mean of replicates
Target sequence (chain): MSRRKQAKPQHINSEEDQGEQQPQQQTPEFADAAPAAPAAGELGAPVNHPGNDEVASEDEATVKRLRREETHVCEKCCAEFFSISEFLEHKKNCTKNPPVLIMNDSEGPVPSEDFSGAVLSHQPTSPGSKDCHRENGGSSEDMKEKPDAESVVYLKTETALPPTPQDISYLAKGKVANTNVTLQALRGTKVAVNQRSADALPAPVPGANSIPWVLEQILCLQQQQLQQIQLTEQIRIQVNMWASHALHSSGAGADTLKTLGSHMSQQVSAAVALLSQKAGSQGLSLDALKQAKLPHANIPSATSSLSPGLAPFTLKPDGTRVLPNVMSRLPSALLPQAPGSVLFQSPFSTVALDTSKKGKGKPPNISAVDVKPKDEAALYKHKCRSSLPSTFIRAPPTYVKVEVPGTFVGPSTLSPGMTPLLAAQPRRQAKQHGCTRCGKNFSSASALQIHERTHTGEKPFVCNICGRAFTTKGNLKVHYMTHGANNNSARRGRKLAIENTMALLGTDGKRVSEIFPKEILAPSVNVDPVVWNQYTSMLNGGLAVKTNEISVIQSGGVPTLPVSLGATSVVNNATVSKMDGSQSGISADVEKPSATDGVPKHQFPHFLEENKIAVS
With `AGTCAAAT` the E-score was 0.254.
For `GGGGGCCA`, the E-score was -0.35.
The E-score of `AAGACAGC` is reported as -0.145.
`CGACCCGC` gave an E-score of -0.273.
For `ACTCGTTC`, the E-score was 0.0245.
`AACGGAGG` gave an E-score of -0.11.
With `ATATCTCC` the E-score was 0.235.
For `CATATTGC`, the E-score was 0.172.
`CATGAAGG` has an E-score of 0.0735.
`GCATCACA` has an E-score of -0.0238.
The E-score of `GCTTTAGA` is reported as 0.145.
`GCGTATTA` has an E-score of 0.214.
With `ATGTCCCC` the E-score was -0.0649.
`AAATTATC` gave an E-score of 0.401.
With `ACTTAGCG` the E-score was -0.0139.

Series 3 — technique: RNA Bind-n-Seq; molecule type: RNA; matrix: in vitro; tested at: 200 nM; setting: whole 134-nt RNA, ends assumed; with: 150 mM LiCl; baseline: input library; reading: higher = stronger binding; library: 7-deaza-guanosine replaces G
Target: Ras GTPase-activating protein-binding protein 1, full length (G3BP1, Homo sapiens, UniProt Q13283)
Sequence of UniProt Q13283 (whole entry, looked up): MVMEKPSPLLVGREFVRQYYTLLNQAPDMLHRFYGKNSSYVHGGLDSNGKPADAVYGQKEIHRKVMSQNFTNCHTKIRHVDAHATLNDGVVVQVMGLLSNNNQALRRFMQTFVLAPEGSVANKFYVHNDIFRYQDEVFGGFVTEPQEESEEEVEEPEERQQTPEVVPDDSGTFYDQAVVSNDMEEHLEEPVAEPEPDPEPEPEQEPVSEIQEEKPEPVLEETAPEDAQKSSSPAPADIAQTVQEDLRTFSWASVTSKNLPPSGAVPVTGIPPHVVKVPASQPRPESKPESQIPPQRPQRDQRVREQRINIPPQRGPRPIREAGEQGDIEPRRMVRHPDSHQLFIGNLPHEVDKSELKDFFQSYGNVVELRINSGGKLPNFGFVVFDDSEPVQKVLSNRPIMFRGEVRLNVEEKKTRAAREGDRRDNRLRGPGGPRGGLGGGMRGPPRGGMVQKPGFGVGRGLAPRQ
All sequences stand within: GGGAGUUCUACAGUCCGACGAUC … UGGAAUUCUCGGGUGUCAAGG
With `UCCUGUGCUACACAUCGUAUGUACCGAAUCGGUUUUUUGGGUUUUUUGGGUUUUUUGGGGAAAGUAUUAUGUUACGCCGUUCGGAUCUGC` the log2 enrichment was -0.446.
With `AGUCCUGUGCUACACAUCGUAUGUACCGAAUCGGGUGGGAAAAAGGGAAAAAAAGGGAAAGUAUUAUGUUACGCCGUUCGGAUCUGCACU` the log2 enrichment was -0.128.
For `UGGCCCUGGUGGCAUGCGGGGAGGAAGAGGUGGCCUCAUGGAUCGUGGUGGUCCCGGUGGAAUGGUCAGAGGUGGCCGUGGUGGAGACAG`, the log2 enrichment was 0.597.
`CUCAAGUCCUGUGCUACACAUCGUAUGUACCGAAUCGGGUUUGGGUGGGAGGGAAAGUAUUAUGUUACGCCGUUCGGAUCUGCACUUCCA` has a log2 enrichment of -0.137.
For `GCAGGAAGUAAAAACAAAUGGAAAUGCUGCGGAUAGUGGCAGGGGUGGGGGUUGCUAAGGAAAGGGUGGGAUGGGAGUGGGUAAAGAGUU`, the log2 enrichment was 0.65.
`AGUCCUGUGCUACACAUCGUAUGUACCGAAUCGGGGCCCCGGCCCCGGGCCCCGGGGAAAGUAUUAUGUUACGCCGUUCGGAUCUGCACU` has a log2 enrichment of -2.15.
`CUCAAGUCCUGUGCUACACAUCGUAUGUACCGAAUCGGUUGGGUUGGGGUUGGAAAGUAUUAUGUUACGCCGUUCGGAUCUGCACUUCCA` gave a log2 enrichment of 0.276.
`GCUGGAAGUAAAAACAAAUGGAAAUGCUUCGGAUAGUGGCAGGGGUGGGGGUUGCUAAGGAAAGGGUGGGAUGGGAGUGGGUAAAGAGUU` gave a log2 enrichment of -0.209.

Series 4 — technique: aptamer microarray, sandwich; molecule type: DNA with 2'F-ANA; matrix: in vitro; tested at: 200 nM; with: Cy3 exosite-II aptamer, 400 nM; reading: higher = stronger binding; sequence: GGTTGGTGTGGTTGG
Target: Prothrombin, mature alpha-thrombin (F2, Homo sapiens, UniProt P00734)
Setting: whole 15-mer aptamer, many near background
`2'F-ANA at 2 4 5 6 8 12 13 14 15` — result for “mean fluorescence intensity”: 51.7 a.u.
For `2'F-ANA at 1 3 7 11 12 13 15`, “mean fluorescence intensity” read 360 a.u.
For `2'F-ANA at 1 3 4 5 6 9 10 11 15`, “mean fluorescence intensity” read 102 a.u.
`2'F-ANA at 2 3 4 5 7 8 9 13`: “mean fluorescence intensity” 63.1 a.u.
For `2'F-ANA at 1 4 5 8 10`, “mean fluorescence intensity” read 45.4 a.u.
For `2'F-ANA at 1 3 6 7 8 9 11 12 14 15`, “mean fluorescence intensity” read 112 a.u.
`2'F-ANA at 2 4 5 7 9 10 13` — result for “mean fluorescence intensity”: 44.4 a.u.
Under “mean fluorescence intensity”, `2'F-ANA at 5 6 8 9 10 12 14 15` is recorded as 50.8 a.u.
`2'F-ANA at 2 3 4 6 8 10 11 15` — result for “mean fluorescence intensity”: 194 a.u.
For `2'F-ANA at 5 6 7 8 9 10 12`, “mean fluorescence intensity” read 51.7 a.u.
`2'F-ANA at 1 4 6 7 8 10 13`: “mean fluorescence intensity” 49.8 a.u.
For `2'F-ANA at 1 4 5 10 11 14 15`, “mean fluorescence intensity” read 45.1 a.u.
For `2'F-ANA at 2 4 5 6 8 12 13`, “mean fluorescence intensity” read 101 a.u.
`2'F-ANA at 1 6 9 11 13`: “mean fluorescence intensity” 107 a.u.
`2'F-ANA at 1 4 5 8 9 11 14 15`: “mean fluorescence intensity” 50.1 a.u.
`2'F-ANA at 2 6 7 8 9 11 14`: “mean fluorescence intensity” 131 a.u.
`2'F-ANA at 1 2 3 6 7 10 11 12 13`: “mean fluorescence intensity” 133 a.u.
Under “mean fluorescence intensity”, `2'F-ANA at 2 3 4 7 13 14` is recorded as 387 a.u.
For `2'F-ANA at 1 2 3 4 5 9 10 13`, “mean fluorescence intensity” read 46.9 a.u.
`2'F-ANA at 2 3 7 8 9 10 12 15`: “mean fluorescence intensity” 456 a.u.
Under “mean fluorescence intensity”, `2'F-ANA at 1 2 10 13 14` is recorded as 56.9 a.u.
For `2'F-ANA at 2 4 5 7 11 12 14 15`, “mean fluorescence intensity” read 47.6 a.u.
Under “mean fluorescence intensity”, `2'F-ANA at 2 3 5 6 8 11 12 14` is recorded as 54.3 a.u.
Under “mean fluorescence intensity”, `2'F-ANA at 3 4 5 6 8 10 12 15` is recorded as 154 a.u.

Series 5 — technique: RNAcompete; molecule type: RNA; matrix: in vitro; tested at: 20 nM; setting: 7-mer, probes averaged, single round; baseline: mean of 7-mers; reading: higher = stronger binding
Target: PABPC1L2, full length, GST fusion (mouse, UniProt A0ABA7IW68)
Target sequence (chain): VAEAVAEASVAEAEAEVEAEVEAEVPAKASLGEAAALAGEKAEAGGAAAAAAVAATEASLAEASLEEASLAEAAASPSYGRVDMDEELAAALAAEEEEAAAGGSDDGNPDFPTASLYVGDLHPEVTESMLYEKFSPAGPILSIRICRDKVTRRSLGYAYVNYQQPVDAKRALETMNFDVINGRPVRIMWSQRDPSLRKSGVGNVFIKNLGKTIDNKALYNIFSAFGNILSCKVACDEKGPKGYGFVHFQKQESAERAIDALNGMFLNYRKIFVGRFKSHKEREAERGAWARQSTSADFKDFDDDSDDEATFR
With `CGGGCGC` the 7-mer Z-score was -0.121.
`GUUAUCC` gave a 7-mer Z-score of -0.204.
For `AGUUUUA`, the 7-mer Z-score was -0.206.
For `CGCCCAC`, the 7-mer Z-score was -0.467.
For `GAAAGUG`, the 7-mer Z-score was 0.702.
`AAACAUU` gave a 7-mer Z-score of 2.94.
`UAGACGU` gave a 7-mer Z-score of -0.248.
`GCGCGCC` has a 7-mer Z-score of -0.336.
The 7-mer Z-score of `UUCUUCC` is reported as -0.376.
`ACACGUG` has a 7-mer Z-score of -0.0609.
`GGGUCAA` gave a 7-mer Z-score of 0.282.
With `UGUACAA` the 7-mer Z-score was 0.265.
For `GUAACGU`, the 7-mer Z-score was -0.273.

Series 6 — target: CCNB1, cyclin fold, Cln2 fusion (human); technique: yeast growth competition, sequencing; matrix: yeast; setting: weak parent motif; baseline: not given; reading: higher = stronger binding
Starting sequence: SLBP docking peptide (human); ARYKRKLLINDFG
Under “normalised enrichment score”, `R2F` is recorded as 0.124.
For `L8S`, “normalised enrichment score” read 0.591.
`R5Q`: “normalised enrichment score” 0.0369.
`A1L`: “normalised enrichment score” 0.0179.
`K6H`: “normalised enrichment score” 0.0464.
Under “normalised enrichment score”, `K6E` is recorded as 0.874.
Under “normalised enrichment score”, `L7H` is recorded as -0.0505.
For `I9P`, “normalised enrichment score” read 0.699.
For `I9H`, “normalised enrichment score” read 1.01.
`R5T`: “normalised enrichment score” -0.000889.
For `N10A`, “normalised enrichment score” read 0.0621.
For `N10D`, “normalised enrichment score” read 0.485.
Under “normalised enrichment score”, `R5M` is recorded as 0.856.
